Results from different studies.
Lines come from different studies, so protocols differ. ± marks the error that the study gave.
Organism: Trypanosoma congolense

The EC50 of `c1ccc(-n2c(-c3cccs3)nc3c4ccccc4c4ccccc4c32)cc1` is reported as > 25 µg/mL (parasite viability, luminescence; IL3000 bloodstream form; 72 h, 33 °C).
The IC50 of `O=[N+]([O-])c1ccc(/C=N/N=C/c2ccc(O)cc2)o1` is reported as 200 ± 70 nM (parasite growth, CellTiter-Glo; IL3000 bloodstream form; 72 h, 33 °C).
`Nc1ncnc2c1c(Br)cn2[C@@H]1O[C@H](CO)C[C@H]1O` gave an EC50 of 0.7 nM (parasite growth, resazurin; 72 h).
For `Oc1ccccc1-c1nc2c3ccccc3c3ccccc3c2o1`, the EC50 was > 25 µg/mL (parasite viability, luminescence; IL3000 bloodstream form; 72 h, 33 °C).
The IC50 of `CCOC(=O)C(NC(=O)CN1C(=O)N/C(=C\c2ccc3c(c2)OCO3)C1=O)C(C)C` (stereo not drawn) is reported as 40400 nM (parasite growth; 72 h).
With `O=[N+]([O-])c1ccc(/C=N/N=C/c2ccc(Cl)cc2)o1` the IC50 was 140 ± 50 nM (parasite growth, CellTiter-Glo; IL3000 bloodstream form; 72 h, 33 °C).
For `CCOC(=O)C(CC)NC(=O)CN1C(=O)S/C(=C\c2ccc(OC)cc2)C1=O` (stereo not drawn), the IC50 was > 58000 nM (parasite growth; 72 h).
`Cc1c(O)c(-c2nc(-c3ccccc3)c(-c3ccccc3)[nH]2)cc(-c2nc(-c3ccccc3)c(-c3ccccc3)[nH]2)c1O` has an EC50 of 21.2 µg/mL (parasite viability, luminescence; IL3000 bloodstream form; 72 h, 33 °C).
`CCC(NC(=O)CN1C(=O)N/C(=C\c2ccc(C)cc2)C1=O)C(=O)OC` (stereo not drawn) has an IC50 of 66000 nM (parasite growth; 72 h).
The EC50 of `CC(C)(C)c1cc(-c2nc3c4ccccc4c4ccccc4c3o2)c(O)c(C(C)(C)C)c1` is reported as 6.82 µg/mL (parasite viability, luminescence; IL3000 bloodstream form; 72 h, 33 °C).
With `O=[N+]([O-])c1ccc(/C=N/N=C/c2ccc(Cl)cc2)s1` the IC50 was 140 ± 60 nM (parasite growth, CellTiter-Glo; IL3000 bloodstream form; 72 h, 33 °C).
With `Nc1ncnc2c1c(Cl)cn2[C@@H]1O[C@H](CO)C[C@H]1O` the EC50 was 1.2 nM (parasite growth, resazurin; 72 h).
`CCOC(=O)C(C)NC(=O)CN1C(=O)N/C(=C\c2ccc(C)cc2)C1=O` (stereo not drawn) has a selectivity index of 4 (MDBK, IL3000; baseline: MDBK CC50 over parasite IC50).
With `O=[N+]([O-])c1ccc(/C=N/N=C/c2ccc(Br)cc2)s1` the IC50 was 120 ± 30 nM (parasite growth, CellTiter-Glo; IL3000 bloodstream form; 72 h, 33 °C).
`C=Cc1cn([C@@H]2O[C@H](CO)C[C@H]2O)c2ncnc(N)c12` has an EC50 of 56 nM (parasite growth, resazurin; 72 h).
`CCOC(=O)CNC(=O)CN1C(=O)S/C(=C\c2ccc(OC)c(O)c2)C1=O` gave an IC50 of 37300 nM (parasite growth; 72 h).
With `O=[N+]([O-])c1ccc(/C=N/N=C/c2ccc(F)cc2)s1` the selectivity index was 0.06 ± 0.03 (IL3000; baseline: CC50 MDBK over IC50).
The selectivity index of `CCOC(=O)CNC(=O)CN1C(=O)S/C(=C\c2ccc(C)cc2)C1=O` is reported as 3 (MDBK, IL3000; baseline: MDBK CC50 over parasite IC50).
For `Nc1ncnc2c1ccn2[C@H]1C[C@H](O)[C@@H](CO)O1`, the EC50 was 43000 nM (parasite growth, resazurin; 72 h).
With `O=[N+]([O-])c1ccc(/C=N/N=C/c2ccc(Br)cc2)o1` the IC50 was 40 ± 10 nM (parasite growth, CellTiter-Glo; IL3000 bloodstream form; 72 h, 33 °C).
With `Nc1ncnc2c1ccn2[C@@H]1O[C@H](CO)C[C@H]1O` the EC50 was 21 nM (parasite growth, resazurin; 72 h).
`CCOC(=O)C(C)NC(=O)CN1C(=O)S/C(=C\c2ccc(F)cc2)C1=O` (stereo not drawn) has an IC50 of 14100 nM (parasite growth; 72 h).
With `CC(C)Oc1ncnc2c1c(Cl)cn2[C@@H]1O[C@H](CO)[C@@H](O)[C@H]1O` the EC50 was 4040 nM (parasite growth, resazurin; 72 h).
`O=[N+]([O-])c1ccc(/C=N/N=C/c2ccccc2)o1` has an IC50 of 190 ± 80 nM (parasite growth, CellTiter-Glo; IL3000 bloodstream form; 72 h, 33 °C).

Some of these lines once more:
With `Nc1ncnc2c1c(Cl)cn2[C@@H]1O[C@H](CO)C[C@H]1O` the EC50 was 1.2 nM (parasite growth, resazurin; 72 h).
`CCOC(=O)C(C)NC(=O)CN1C(=O)N/C(=C\c2ccc(C)cc2)C1=O` (stereo not drawn) has a selectivity index of 4 (MDBK, IL3000; baseline: MDBK CC50 over parasite IC50).
